Experimental data pooled from the literature.
Parts stem from different laboratories: compare values within a part only.

Set 1
Target: Sox-I, HMG box (Salpingoeca helianthica)
Method: Spec-seq
Molecule type: double-stranded DNA, one strand shown
Medium: in vitro
Tested at: not given
Notes: whole probe, mean of replicates
Baseline: not given
Direction: lower = stronger binding
Quantity: relative binding energy
Target sequence (chain): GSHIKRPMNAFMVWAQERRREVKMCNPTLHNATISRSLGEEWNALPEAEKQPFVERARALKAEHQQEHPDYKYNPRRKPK
GAGTCGTCTCGTCAGCACCATTCTACCGTAGAGCACTCAGGTC: 0.0334 ln ratio
GAGTCGTCTCGTCAGCACCAGGGTTCCGTAGAGCACTCAGGTC: 1.05 ln ratio
GAGTCGTCTCGTCAGCACCATTCCGCCGTAGAGCACTCAGGTC: 0.994 ln ratio

Set 2
Target: Replicase polyprotein 1ab, main protease (rep, Severe acute respiratory syndrome coronavirus 2, UniProt P0DTD1)
Observed: enzyme activity
Mode: inhibitor
Notes: no DTT
Quantity: IC50
c1ccc2sc(SNC3CCCCC3)nc2c1: 0.8 µM
COc1cccc2c1C(=O)c1c(O)c3c(c(O)c1C2=O)C[C@@](O)(/C(CO)=N/NC(=O)CCCCCN1C(=O)C=CC1=O)C[C@@H]3O[C@H]1C[C@H](N)[C@H](O)[C@H](C)O1: 0.6 µM
O=C(/C=C/c1ccc(O)c(O)c1)O[C@H](Cc1ccc(O)c(O)c1)C(=O)O: 10 µM
COC(=O)C1=C(C)NC(C)=C(C(=O)OC)C1c1ccccc1[N+](=O)[O-]: 6.6 µM

Set 3
Target: RNA binding protein fox-1 homolog 2, RRM domain, GST-SBP tag (RBFOX2, Homo sapiens, UniProt O43251-10, residues 100-194)
Method: RNA Bind-n-Seq
Molecule type: RNA
Medium: in vitro
Tested at: 365 nM
Notes: natural RNA segment, single round, ends assumed
Baseline: no-protein control
Direction: higher = stronger binding
Quantity: RBNS enrichment (R)
All sequences stand within: GGGAGUUCUACAGUCCGACGAUC … UGGAAUUCUCGGGUGCCAA
Target sequence (chain): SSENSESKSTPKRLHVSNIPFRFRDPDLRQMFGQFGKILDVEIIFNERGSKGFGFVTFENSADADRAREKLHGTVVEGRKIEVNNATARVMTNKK
AAGGAACCAUGUAAUGGUAGCAGUACCUCCCUAAAGCAUUUUGAGGUAGGGGAGGUAUCCAUUCAUAAAAUGAAUGUGGGUGAAGCCGCCCUAAGGAUUUUCCUUUAAUU: 2.63
GUAGAUUUAAAUGCUCAAAAAUAAAUGUAACUGAGAAGAGUUAAUAAUUGUGAGAUUUUUCCCAAAUUGAGAUACAGAAGAAAAUAUAGUUUGAAUCUGAAAUUUAACAC: 0.72
CAGAAAUCCUCUGGGGCAUUUAACCAUCUGGCAGAAUUGUUGCUGCACCCUUAUCCCAGUUAUAAGACAGUCAAAAUGACUAUUUCCUAAAUAUUGUGAGUGUAUGAAAU: 0.313
CCACCUUUCACCCCACAGUGGUUUUCAAUUAGUAUUUAUUCCAUGGUGGAGUCUGUGAGGCUAGAAUAUCUCUCAGCAAGAGCAGCAUACCUCCAUGUUGUGAAGGCAUC: 0.494
CACUCAGCCCACAUACGGCAUUCUUCCCAUCCCACAGUCUUAGAGCCAGAUGAGGCUAACAAGACCACAGUAGCCCCCUUCCCAGGUACCACACUGUCCCUGGAGAUCCC: 0.808
AUGGACACCUUGCUGGACUUGAAGUCCGCUAGUUGGACUUUGCCUAGGGCUUUCAUCUUGCCUUGCCCUCCCUUUCUGUCCCAUCUGCAGCCUCACCAGGUGGGCUUGUA: 0.943
GCCCUGGUGACAGAGGAGACCCCGUCUCAAAAAUUGAUUGAUCAAUUCAGCAUCUGAGGGCUGCAAGUACAGAAGGAAUCUAUUCUCAGCAGGGCAUAGGGCACGCACUG: 0.846
UUCUGGAACUUACAGUAUGAAGAGCAGAUGAGGAGUUUGAGACAAAGAAAAAAUUGUACAGGGAGUUUAGUGAAUUUUCCAUCAGGUUGGCCAUUACUUUCUUUCUCUAA: 0.709

Set 4
Target: Replicase polyprotein 1ab, polymerase (rep, Severe acute respiratory syndrome coronavirus 2, UniProt P0DTD1)
Observed: enzyme activity
Mode: inhibitor
Tested at: 20 µM
Quantity: inhibition
COc1cc2c(CCNC(C)=O)c[nH]c2cc1Cl: 3.28%
C[N@+]1(CC2CC2)CC[C@]23c4c5ccc(O)c4O[C@H]2C(=O)CC[C@@]3(O)[C@H]1C5: -16%
CN1C[C@H](C(=O)N[C@]2(C)O[C@@]3(O)[C@@H]4CCCN4C(=O)[C@H](Cc4ccccc4)N3C2=O)C[C@@H]2c3cccc4[nH]cc(c34)C[C@H]21: 2.79%
CC(Oc1c(Cl)cccc1Cl)C1=NCCN1 (centres unmarked): -0.59%
COCCNC(=O)Cn1cnc([N+](=O)[O-])n1: 0.41%
Clc1ccc(C(c2ccc(Cl)cc2)C(Cl)(Cl)Cl)cc1: -13.5%
C[C@@H]1C[C@H]2[C@@H]3C[C@H](F)C4=CC(=O)C=C[C@]4(C)[C@@]3(F)[C@@H](O)C[C@]2(C)[C@@]1(O)C(=O)CO: -2.25%
O=C(O)C(Cl)Cl: 1.66%
O=C(CCCCC(=O)Nc1c(I)cc(I)c(C(=O)O)c1I)Nc1c(I)cc(I)c(C(=O)O)c1I: -3.31%
c1cc(-c2sc(-c3ccncc3)c(-c3ccncc3)c2-c2ccncc2)ccn1: -0.63%
O=c1ccc2ccc(O)c(O)c2o1: 0.07%
C[C@]12CCC(=O)C=C1CC[C@@H]1[C@@H]2CC[C@@]2(C)[C@H]1CC[C@]2(O)C(=O)CO: -7.54%
CC(C)c1cc(C(C)C)c(CC(=O)NS(=O)(=O)Oc2c(C(C)C)cccc2C(C)C)c(C(C)C)c1: 4.42%
CC(C)COC(=O)c1ccc(N)cc1: 2.14%
O=C(Nc1cc(-c2ccccc2)nn1-c1ccccc1F)c1ccc([N+](=O)[O-])cc1: 3.48%
CNCCc1cnc[nH]1: 0.26%
C[n+]1cccc(C(=O)[O-])c1: -0.59%
OCCN1C[C@H](O)[C@@H](O)[C@H](O)[C@H]1CO: -2.34%
CC(C)[C@@H](CS(=O)(=O)C(C)C)N1C(=O)[C@@](C)(CC(=O)O)C[C@H](c2cccc(Cl)c2)[C@H]1c1ccc(Cl)cc1: -1.21%

Set 5
Cell line: HEK-293T
Observed: pseudovirus infection
Method: FDA-approved drug library screen
Organism: VSV pseudotyped with SARS-CoV-2 spike
Tested at: 10 µM
Time: 16 h
Baseline: vehicle-treated
Quantity: GFP-positive cells
CCCNC(C)C(=O)Nc1c(C)csc1C(=O)OC (centres unmarked): 93.2%
C#C[C@]1(O)CC[C@H]2[C@@H]3CCC4=C(CCC(=O)C4)[C@H]3CC[C@@]21C: 102%
C[C@]12CC[C@@H]3c4ccc(OC(=O)c5ccccc5)cc4CC[C@H]3[C@@H]1CC[C@@H]2O: 98.7%
CC1(C)O[C@@H]2[C@@H](CO[C@@]3(COS(N)(=O)=O)OC(C)(C)O[C@@H]23)O1: 89.7%

A few entries again (set 5):
CC1(C)O[C@@H]2[C@@H](CO[C@@]3(COS(N)(=O)=O)OC(C)(C)O[C@@H]23)O1: 89.7%
CCCNC(C)C(=O)Nc1c(C)csc1C(=O)OC (centres unmarked): 93.2%
C[C@]12CC[C@@H]3c4ccc(OC(=O)c5ccccc5)cc4CC[C@H]3[C@@H]1CC[C@@H]2O: 98.7%
C#C[C@]1(O)CC[C@H]2[C@@H]3CCC4=C(CCC(=O)C4)[C@H]3CC[C@@]21C: 102%
